Measured values of several laboratories.
A part holds a random share of what one study measured.
UniProt P10721, sequence (whole entry, unmodified, looked up): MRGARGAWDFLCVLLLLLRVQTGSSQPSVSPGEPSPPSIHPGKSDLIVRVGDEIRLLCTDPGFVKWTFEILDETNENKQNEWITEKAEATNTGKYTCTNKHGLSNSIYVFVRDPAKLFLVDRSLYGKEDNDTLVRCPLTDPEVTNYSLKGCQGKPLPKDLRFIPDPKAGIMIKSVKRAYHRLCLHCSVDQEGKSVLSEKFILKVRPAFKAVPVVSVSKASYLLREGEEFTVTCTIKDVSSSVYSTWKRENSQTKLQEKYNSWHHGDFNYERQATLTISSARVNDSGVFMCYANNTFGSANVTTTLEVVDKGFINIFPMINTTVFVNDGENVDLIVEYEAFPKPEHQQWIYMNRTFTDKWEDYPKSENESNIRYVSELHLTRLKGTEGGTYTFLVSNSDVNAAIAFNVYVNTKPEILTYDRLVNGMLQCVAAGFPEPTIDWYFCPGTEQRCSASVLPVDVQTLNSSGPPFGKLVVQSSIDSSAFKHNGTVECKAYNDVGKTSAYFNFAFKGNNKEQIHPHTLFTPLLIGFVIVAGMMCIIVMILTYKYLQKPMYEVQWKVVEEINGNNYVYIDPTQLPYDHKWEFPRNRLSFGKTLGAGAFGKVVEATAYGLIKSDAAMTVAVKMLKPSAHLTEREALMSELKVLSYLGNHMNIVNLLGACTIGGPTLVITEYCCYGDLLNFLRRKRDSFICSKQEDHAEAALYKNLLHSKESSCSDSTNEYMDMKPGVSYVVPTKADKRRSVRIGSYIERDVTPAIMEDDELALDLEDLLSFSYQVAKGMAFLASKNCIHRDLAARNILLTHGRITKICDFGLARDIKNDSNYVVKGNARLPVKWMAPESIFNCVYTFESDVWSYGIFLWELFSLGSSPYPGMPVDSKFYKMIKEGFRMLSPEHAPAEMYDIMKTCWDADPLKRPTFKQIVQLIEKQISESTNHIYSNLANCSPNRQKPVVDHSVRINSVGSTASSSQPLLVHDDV
UniProt O43318, sequence (whole entry, looked up): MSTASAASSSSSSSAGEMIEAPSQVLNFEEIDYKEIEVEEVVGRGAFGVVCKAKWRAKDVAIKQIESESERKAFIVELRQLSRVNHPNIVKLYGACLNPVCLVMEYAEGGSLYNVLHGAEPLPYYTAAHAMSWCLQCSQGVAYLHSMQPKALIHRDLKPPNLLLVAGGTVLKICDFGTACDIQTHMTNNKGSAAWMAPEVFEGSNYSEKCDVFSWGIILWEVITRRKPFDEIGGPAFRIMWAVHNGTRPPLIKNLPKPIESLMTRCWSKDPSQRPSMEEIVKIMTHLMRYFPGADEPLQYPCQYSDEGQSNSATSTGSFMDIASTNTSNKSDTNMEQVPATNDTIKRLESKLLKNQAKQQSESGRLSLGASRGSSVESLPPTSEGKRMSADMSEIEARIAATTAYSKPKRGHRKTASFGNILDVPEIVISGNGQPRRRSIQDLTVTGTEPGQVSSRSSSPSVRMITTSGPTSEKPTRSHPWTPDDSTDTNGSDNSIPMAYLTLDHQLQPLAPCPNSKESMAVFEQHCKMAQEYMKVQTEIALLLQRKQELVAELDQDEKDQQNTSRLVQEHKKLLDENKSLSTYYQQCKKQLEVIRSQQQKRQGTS
UniProt O43293, sequence (whole entry, looked up): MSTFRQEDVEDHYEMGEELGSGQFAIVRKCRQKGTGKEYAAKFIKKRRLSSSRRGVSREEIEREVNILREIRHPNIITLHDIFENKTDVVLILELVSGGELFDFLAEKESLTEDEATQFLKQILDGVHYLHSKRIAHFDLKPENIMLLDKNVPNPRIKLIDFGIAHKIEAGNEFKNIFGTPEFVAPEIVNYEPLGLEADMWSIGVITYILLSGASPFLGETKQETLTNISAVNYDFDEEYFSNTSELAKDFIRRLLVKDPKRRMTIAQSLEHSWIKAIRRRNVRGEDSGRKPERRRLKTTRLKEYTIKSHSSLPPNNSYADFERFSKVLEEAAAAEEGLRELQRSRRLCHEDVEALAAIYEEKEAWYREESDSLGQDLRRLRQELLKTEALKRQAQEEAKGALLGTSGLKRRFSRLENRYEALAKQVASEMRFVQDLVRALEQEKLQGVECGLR
UniProt Q9UF33, sequence (whole entry, looked up): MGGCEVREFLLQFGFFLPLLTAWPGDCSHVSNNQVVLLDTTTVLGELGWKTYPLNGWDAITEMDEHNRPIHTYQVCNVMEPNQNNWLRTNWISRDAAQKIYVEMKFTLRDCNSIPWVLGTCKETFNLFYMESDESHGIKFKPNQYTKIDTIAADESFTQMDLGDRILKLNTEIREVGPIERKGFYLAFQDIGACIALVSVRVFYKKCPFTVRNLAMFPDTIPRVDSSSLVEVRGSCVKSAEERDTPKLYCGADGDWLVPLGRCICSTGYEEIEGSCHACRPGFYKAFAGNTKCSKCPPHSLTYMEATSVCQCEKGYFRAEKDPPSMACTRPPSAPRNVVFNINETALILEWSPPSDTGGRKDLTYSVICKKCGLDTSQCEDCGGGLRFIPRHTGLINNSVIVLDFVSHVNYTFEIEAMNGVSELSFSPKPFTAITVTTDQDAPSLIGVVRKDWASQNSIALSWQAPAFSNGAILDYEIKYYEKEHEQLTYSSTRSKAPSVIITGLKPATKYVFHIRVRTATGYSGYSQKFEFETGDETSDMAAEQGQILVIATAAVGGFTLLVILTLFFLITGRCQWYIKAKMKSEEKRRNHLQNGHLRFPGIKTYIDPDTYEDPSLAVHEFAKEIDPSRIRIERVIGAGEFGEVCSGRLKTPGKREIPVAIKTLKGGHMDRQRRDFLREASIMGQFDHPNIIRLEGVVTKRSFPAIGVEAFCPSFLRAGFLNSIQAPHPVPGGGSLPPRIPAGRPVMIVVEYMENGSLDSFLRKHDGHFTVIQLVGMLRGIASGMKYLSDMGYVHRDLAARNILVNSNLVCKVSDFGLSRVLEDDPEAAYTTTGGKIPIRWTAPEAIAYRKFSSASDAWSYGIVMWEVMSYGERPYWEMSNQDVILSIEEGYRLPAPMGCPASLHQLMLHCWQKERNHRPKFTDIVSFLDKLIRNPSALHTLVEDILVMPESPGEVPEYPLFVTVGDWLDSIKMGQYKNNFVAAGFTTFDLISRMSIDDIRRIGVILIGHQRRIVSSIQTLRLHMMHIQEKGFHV

Sample 1
Target: Calcium/calmodulin-dependent protein kinase type II subunit alpha (CAMK2A, Homo sapiens, UniProt Q9UQM7)
UniProt Q9UQM7, sequence (whole entry, looked up): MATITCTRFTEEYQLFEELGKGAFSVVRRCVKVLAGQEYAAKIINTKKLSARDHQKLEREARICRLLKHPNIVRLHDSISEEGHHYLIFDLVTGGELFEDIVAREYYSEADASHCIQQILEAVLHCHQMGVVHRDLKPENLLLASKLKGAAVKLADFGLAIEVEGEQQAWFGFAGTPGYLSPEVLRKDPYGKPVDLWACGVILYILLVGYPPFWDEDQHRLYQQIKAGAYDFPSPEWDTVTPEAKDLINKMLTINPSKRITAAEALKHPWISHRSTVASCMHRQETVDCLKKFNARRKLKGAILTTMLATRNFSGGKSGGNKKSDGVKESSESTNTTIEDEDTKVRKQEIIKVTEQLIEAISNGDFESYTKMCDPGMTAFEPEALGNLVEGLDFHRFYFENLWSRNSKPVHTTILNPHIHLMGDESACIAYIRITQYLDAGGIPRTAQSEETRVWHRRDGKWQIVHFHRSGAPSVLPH
Observed: enzyme activity
Mode: inhibitor
Concentration: 10 µM
SMILES	inhibition [%]
C/C=C(\CC[C@@H](C)[C@H]1CC[C@H]2[C@@H]3CC=C4C[C@@H](O)CC[C@]4(C)[C@H]3CC[C@]12C)C(C)C	33
CCCCCCCC/C=C\CCCCCCCC(=O)O[C@H]1CC[C@@]2(C)C(=CC[C@H]3[C@@H]4CC[C@H]([C@H](C)CCCC(C)C)[C@@]4(C)CC[C@@H]32)C1	-8
CCOC(=O)[C@H](CCc1ccccc1)N[C@@H](C)C(=O)N1CCC[C@H]1C(=O)O	7
NC(=O)CC(N)C(=O)O (racemic)	31
CC1(C)O[C@H]2[C@H](O)CC(C(=O)O)=C[C@H]2O1	-9
COC(=O)C1=CO[C@@H](O[C@@H]2O[C@H](CO)[C@@H](O)[C@H](O)[C@H]2O)[C@H]2[C@@H]1[C@H](O)C[C@]2(C)OC(C)=O	-21
Sc1nc2ccccc2s1	-5
CC(=O)c1ccc(C)cc1	3
C[C@]12CCC(=O)C=C1C=C[C@@H]1[C@@H]2CC[C@@]2(C)[C@H]1CC[C@@]21CCC(=O)O1	-7

Sample 2
Target: Beta-1 adrenergic receptor (ADRB1, Homo sapiens, UniProt P08588)
UniProt P08588, sequence (whole entry, looked up): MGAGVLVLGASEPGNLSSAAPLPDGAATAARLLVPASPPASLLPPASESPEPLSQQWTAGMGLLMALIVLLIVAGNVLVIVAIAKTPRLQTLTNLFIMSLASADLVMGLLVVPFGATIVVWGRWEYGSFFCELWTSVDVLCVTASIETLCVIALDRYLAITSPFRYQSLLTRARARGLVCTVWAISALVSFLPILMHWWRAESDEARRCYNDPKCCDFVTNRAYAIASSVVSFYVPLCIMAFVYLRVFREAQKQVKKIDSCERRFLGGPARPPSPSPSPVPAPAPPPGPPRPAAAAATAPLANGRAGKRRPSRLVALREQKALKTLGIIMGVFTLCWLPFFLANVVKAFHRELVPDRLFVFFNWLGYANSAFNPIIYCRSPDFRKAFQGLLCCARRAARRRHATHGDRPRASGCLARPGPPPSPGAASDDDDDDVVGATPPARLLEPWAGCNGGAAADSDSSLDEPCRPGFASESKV
Mode: agonist
Compound	Emax [%]
COc1ccccc1OCC(O)CN1CCN(CC(=O)Nc2c(C)cccc2C)CC1 (stereo not shown)	70.5
CC(CCc1ccccc1)NCC(O)c1ccc(O)c(C(N)=O)c1 (stereo not shown)	96.5
Nc1ncnc2c1ncn2[C@@H]1O[C@@H]2COP(=O)(O)O[C@H]2[C@H]1O	91.7
Cc1cc2c(OCC(CNC(C)(C)C)OC(=O)c3ccccc3)cccc2[nH]1 (stereo not shown)	113
COc1ccccc1N1CCN(CCN2C(=O)NC(C)(C)C2=O)CC1	64.7
COc1ccccc1N1CCN(C(=O)C(C)CN)CC1 (stereo not shown)	35.5
COc1ccccc1N1CCN([C@@H]2[C@H](O)[C@H](CO)O[C@@H]2CNC(C)C)CC1	54.3
COc1ccc2[nH]cc(C3CCN(CC(O)COc4ccccc4)CC3)c2c1 (stereo not shown)	85.3

Sample 3
SMILES: CNC(=O)c1ccc(Nc2ncc(C(F)(F)F)c(NCc3nccnc3N(C)S(C)(=O)=O)n2)cc1
Technique: competition with immobilised ligand
target	assay	setting	remaining binding [%]
PIP5K1A (Homo sapiens, UniProt Q99755)	cell-free assay	0.1 µM	98
HIPK2 (Homo sapiens, UniProt Q9H2X6)	cell-free assay	0.1 µM	37
PTK2 (Homo sapiens, UniProt Q05397)	binding	1 µM	0.2
BRSK2 (Homo sapiens, UniProt Q8IWQ3)	cell-free assay	0.1 µM	100
ROCK1 (Homo sapiens, UniProt Q13464)	cell-free assay	0.1 µM	100
FLT3 (Homo sapiens, UniProt P36888, ITD)	cell-free assay	0.1 µM	26
CDK17 (Homo sapiens, UniProt Q00537)	cell-free assay	0.1 µM	88
PIK3CA (Homo sapiens, UniProt P42336, H1047L)	cell-free assay	0.1 µM	32
DAPK3 (Homo sapiens, UniProt O43293)	cell-free assay	0.1 µM	75
CDK2 (Homo sapiens, UniProt P24941)	cell-free assay	0.1 µM	97
MAPK8 (Homo sapiens, UniProt P45983)	cell-free assay	0.1 µM	100
EPHA6 (Homo sapiens, UniProt Q9UF33)	cell-free assay	0.1 µM	85
MAPK7 (Homo sapiens, UniProt Q13164)	cell-free assay	0.1 µM	87
TEC (Homo sapiens, UniProt P42680)	cell-free assay	0.1 µM	100
DCLK2 (Homo sapiens, UniProt Q8N568)	cell-free assay	0.1 µM	71
MAP2K6 (Homo sapiens, UniProt P52564)	cell-free assay	0.1 µM	77
MAP2K5 (Homo sapiens, UniProt Q13163)	cell-free assay	0.1 µM	89
FES (Homo sapiens, UniProt P07332)	cell-free assay	0.1 µM	82
MAP3K7 (Homo sapiens, UniProt O43318)	cell-free assay	0.1 µM	57
KIT (Homo sapiens, UniProt P10721)	cell-free assay	0.1 µM	84
EGFR (Homo sapiens, UniProt P00533, del747-752/P753S)	cell-free assay	0.1 µM	82
KIT (Homo sapiens, UniProt P10721, V559D/V654A)	cell-free assay	0.1 µM	100
PIP5K1C (Homo sapiens, UniProt O60331)	cell-free assay	0.1 µM	100
KIT (Homo sapiens, UniProt P10721, T670I/V559D)	cell-free assay	0.1 µM	100
NUAK2 (Homo sapiens, UniProt Q9H093)	cell-free assay	0.1 µM	53

Sample 4
Target: Inhibitor of nuclear factor kappa-B kinase subunit alpha (CHUK, Homo sapiens, UniProt O15111)
UniProt O15111, sequence (whole entry, looked up): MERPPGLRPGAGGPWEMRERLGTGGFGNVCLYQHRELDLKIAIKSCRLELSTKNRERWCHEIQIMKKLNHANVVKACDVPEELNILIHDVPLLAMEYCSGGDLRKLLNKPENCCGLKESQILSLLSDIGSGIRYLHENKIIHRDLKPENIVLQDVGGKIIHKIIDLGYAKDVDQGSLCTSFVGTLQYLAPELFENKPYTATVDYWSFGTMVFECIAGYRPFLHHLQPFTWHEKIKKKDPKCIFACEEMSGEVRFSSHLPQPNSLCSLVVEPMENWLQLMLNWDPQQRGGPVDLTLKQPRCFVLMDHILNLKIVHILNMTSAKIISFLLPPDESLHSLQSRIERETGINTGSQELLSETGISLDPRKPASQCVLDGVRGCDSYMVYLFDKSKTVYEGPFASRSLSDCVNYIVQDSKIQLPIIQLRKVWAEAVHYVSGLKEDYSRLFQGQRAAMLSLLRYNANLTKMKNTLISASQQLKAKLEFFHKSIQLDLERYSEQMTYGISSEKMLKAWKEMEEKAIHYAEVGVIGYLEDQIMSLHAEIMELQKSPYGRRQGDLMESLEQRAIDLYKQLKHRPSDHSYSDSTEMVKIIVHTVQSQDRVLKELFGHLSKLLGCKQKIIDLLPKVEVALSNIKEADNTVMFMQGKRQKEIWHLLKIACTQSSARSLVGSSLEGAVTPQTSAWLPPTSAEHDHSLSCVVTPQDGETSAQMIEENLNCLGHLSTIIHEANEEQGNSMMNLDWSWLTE
Observed: enzyme activity
Mode: inhibitor
Concentration: 0.5 µM
Reference: control
SMILES	remaining activity
O=C1Nc2ccccc2/C1=C\c1c(Cl)[nH]c2ccccc12	94.2%
c1ccc(-c2n[nH]c3c2oc2ccccc23)cc1	92.3%
COc1cccc(-c2cc(=O)c3ccccc3o2)c1N	104%
c1ccc2c(-c3ccncc3)c[nH]c2c1	107%
O=C(c1cc2cc(O)ccc2[nH]1)c1cc2cc(O)ccc2[nH]1	103%
CCCNC(=O)Nc1ccc(Oc2ncnc3cc(OC)c(OC)cc23)cc1Cl	84.9%
Cc1ccc(S(=O)(=O)/C=C/C#N)cc1	87.3%
CCCCc1c(-c2ccc(OC)cc2)[nH]c2nccnc12	97.3%
O=C1NC(=O)c2c1c1c3ccccc3[nH]c1c1[nH]c3cc(Br)ccc3c21	81.5%
COc1ccc(COc2ccc(Cc3cnc(N)nc3N)cc2OC)cc1	94.7%
O=C1Nc2ccc(Br)cc2/C1=C/c1cc2c([nH]1)CCCC2	99.1%
O=C1Cc2c([nH]c3ccc(Br)cc23)-c2ccccc2N1	98.6%
O=C1NC(=O)c2c1c1c3ccccc3[nH]c1n1cncc21	100%
COc1ccc2c(c1)c(C1=C(c3c[nH]c4ccccc34)C(=O)NC1=O)cn2CCCN(C)C	96.5%
Oc1cccc(-c2nc(N3CCOCC3)c3oc4ncccc4c3n2)c1	94.8%
CN(C)S(=O)(=O)c1ccc2c(c1)/C(=C/c1cc3c([nH]1)CCCC3)C(=O)N2	115%
N#Cc1cnc2cnc(NCc3cccnc3)cc2c1Nc1ccc(F)c(Cl)c1	96.3%
Cc1cc(Nc2cc(N3CCN(C)CC3)nc(Sc3ccc(NC(=O)C4CC4)cc3)n2)[nH]n1	99.4%
O=c1cc(N2CCOCC2)oc2c(-c3ccccc3)cccc12	104%

Excerpt of the above (sample 3):
target	assay	setting	remaining binding [%]
FLT3 (Homo sapiens, UniProt P36888, ITD)	cell-free assay	0.1 µM	26
MAP3K7 (Homo sapiens, UniProt O43318)	cell-free assay	0.1 µM	57
HIPK2 (Homo sapiens, UniProt Q9H2X6)	cell-free assay	0.1 µM	37
CDK17 (Homo sapiens, UniProt Q00537)	cell-free assay	0.1 µM	88
MAPK8 (Homo sapiens, UniProt P45983)	cell-free assay	0.1 µM	100
MAPK7 (Homo sapiens, UniProt Q13164)	cell-free assay	0.1 µM	87
ROCK1 (Homo sapiens, UniProt Q13464)	cell-free assay	0.1 µM	100
PIP5K1C (Homo sapiens, UniProt O60331)	cell-free assay	0.1 µM	100
DCLK2 (Homo sapiens, UniProt Q8N568)	cell-free assay	0.1 µM	71
